Published values pooled from the literature.
Protocols differ between the studies behind these lines. “And” joins repeats or separate records; there may be more than shown. Numbers after ± are the reported error. Converted amounts (≈) assume the structure as drawn.
4'-phosphopantetheinyl transferase PptT: 4'-phosphopantetheinyl transferase PptT (Mycobacterium tuberculosis, UniProt O33336)
Sequence of UniProt O33336 (whole entry, looked up): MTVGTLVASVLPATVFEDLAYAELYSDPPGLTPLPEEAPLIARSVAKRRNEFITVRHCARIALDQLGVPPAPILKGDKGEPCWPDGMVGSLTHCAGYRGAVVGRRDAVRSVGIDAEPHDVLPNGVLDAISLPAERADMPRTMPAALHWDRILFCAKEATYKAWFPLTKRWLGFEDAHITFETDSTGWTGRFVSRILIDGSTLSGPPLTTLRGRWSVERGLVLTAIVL
SCRIB PDZ3 domain: Protein scribble homolog, PDZ3 domain (SCRIB, Homo sapiens, UniProt Q14160)
Sequence of UniProt Q14160 (whole entry, looked up): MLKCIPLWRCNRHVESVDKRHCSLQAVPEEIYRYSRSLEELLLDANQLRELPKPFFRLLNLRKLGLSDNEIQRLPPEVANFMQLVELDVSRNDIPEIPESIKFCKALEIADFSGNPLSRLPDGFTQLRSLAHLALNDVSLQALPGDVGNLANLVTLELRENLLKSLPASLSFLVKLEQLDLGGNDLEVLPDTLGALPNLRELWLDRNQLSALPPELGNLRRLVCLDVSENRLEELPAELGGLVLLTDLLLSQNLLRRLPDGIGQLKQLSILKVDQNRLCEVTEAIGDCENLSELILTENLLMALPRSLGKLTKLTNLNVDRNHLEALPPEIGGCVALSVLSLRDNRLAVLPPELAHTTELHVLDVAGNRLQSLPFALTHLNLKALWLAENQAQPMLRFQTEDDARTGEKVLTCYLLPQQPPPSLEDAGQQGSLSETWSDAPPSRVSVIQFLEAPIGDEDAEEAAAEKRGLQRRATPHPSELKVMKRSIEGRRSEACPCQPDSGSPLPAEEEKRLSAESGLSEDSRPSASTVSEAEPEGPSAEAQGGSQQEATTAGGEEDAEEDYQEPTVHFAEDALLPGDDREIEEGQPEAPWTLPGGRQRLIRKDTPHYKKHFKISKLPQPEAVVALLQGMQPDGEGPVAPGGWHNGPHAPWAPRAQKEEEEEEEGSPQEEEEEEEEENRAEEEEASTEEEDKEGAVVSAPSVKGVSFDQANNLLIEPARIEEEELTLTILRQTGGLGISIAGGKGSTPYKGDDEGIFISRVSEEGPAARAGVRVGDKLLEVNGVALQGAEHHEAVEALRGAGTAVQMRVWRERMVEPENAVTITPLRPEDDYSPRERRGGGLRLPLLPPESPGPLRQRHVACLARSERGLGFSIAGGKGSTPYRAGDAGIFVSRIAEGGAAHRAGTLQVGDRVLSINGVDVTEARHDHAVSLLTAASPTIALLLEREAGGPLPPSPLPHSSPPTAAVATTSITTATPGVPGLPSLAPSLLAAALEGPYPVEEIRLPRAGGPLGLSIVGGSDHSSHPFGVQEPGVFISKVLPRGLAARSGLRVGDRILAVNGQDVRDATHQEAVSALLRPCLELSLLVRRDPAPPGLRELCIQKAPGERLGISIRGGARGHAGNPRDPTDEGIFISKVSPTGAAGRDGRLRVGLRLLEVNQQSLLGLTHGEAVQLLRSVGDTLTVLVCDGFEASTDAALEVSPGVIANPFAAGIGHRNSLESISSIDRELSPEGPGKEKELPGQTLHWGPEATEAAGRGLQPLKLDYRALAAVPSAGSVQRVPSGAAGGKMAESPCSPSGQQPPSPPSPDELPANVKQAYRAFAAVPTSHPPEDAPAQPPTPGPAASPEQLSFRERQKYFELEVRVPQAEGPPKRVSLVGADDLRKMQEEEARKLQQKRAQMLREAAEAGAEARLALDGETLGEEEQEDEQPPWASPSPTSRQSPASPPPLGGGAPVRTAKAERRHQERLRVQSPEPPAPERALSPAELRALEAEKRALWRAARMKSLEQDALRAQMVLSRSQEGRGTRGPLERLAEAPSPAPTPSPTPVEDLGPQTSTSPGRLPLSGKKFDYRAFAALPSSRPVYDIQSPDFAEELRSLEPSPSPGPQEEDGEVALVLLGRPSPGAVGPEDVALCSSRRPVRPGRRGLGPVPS
Sequence of UniProt P68402 (whole entry, looked up): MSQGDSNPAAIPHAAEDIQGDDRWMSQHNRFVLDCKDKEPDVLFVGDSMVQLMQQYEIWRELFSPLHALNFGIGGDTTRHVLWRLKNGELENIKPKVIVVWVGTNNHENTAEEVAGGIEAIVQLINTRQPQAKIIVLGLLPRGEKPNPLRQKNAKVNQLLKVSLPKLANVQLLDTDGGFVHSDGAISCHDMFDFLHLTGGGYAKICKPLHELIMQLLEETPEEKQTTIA
Sequence of UniProt P08235 (whole entry, looked up): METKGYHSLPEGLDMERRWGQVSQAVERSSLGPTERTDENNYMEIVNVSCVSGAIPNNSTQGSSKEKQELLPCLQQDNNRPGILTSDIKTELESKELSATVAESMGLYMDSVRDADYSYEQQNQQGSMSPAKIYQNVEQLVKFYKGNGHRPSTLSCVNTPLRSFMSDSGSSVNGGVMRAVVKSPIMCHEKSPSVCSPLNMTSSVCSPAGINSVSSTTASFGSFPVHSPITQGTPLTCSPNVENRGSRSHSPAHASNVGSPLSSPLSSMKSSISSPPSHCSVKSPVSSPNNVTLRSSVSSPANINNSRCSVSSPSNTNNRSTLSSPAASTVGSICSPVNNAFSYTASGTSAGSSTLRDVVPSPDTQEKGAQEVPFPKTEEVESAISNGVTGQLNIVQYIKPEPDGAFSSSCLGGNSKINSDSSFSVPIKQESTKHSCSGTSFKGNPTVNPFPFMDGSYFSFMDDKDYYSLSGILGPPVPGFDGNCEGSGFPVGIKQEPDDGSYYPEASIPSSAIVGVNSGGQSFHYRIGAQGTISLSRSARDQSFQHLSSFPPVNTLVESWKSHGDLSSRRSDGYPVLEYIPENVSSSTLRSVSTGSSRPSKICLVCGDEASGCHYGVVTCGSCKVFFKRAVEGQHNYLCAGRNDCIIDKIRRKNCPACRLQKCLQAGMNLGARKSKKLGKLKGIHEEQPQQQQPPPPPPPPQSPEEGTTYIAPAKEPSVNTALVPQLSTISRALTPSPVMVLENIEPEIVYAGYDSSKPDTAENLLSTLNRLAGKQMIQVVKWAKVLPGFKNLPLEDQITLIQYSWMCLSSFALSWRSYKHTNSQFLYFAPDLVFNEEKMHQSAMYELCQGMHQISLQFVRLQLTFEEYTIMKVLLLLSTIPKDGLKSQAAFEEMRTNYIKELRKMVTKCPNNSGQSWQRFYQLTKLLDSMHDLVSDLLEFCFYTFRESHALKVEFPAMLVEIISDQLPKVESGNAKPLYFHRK

CC(C)(C)NCCc1c[nH]c2cccc(O)c12.CC(C)(C)NCCc1c[nH]c2cccc(O)c12.O=C(O)/C=C/C(=O)O  distance travelled (C57BL/6J mice; subcutaneous, 0.3 mg/kg, 30 min): 2640 ± 212 cm
NCCc1ccc(Oc2ccc(O)cc2)c(I)c1  maximum body temperature change (TAAR1 knock-out mice; ip, 25 mg/kg, 30 min; reference: saline): -3 ± 0.2 °C
CCCCCNC(=N)NC(=O)Nc1c(CC)cccc1CC  IC50 (4'-phosphopantetheinyl transferase PptT; inhibitor): > 100 µM
CC[C@H](C)[C@@H]1NC(=O)[C@H](CO)NC(=O)[C@@H]2CCCN2C(=O)[C@@H](NC(=O)CN)CSSC[C@@H]2NC(=O)CNC(=O)[C@H](C)NC(=O)[C@H](CC(C)C)NC(=O)[C@@H]3CSSC[C@@H](C(=O)NCC(=O)O)NC(=O)[C@H](Cc4ccccc4)NC(=O)CNC(=O)[C@H](CC(N)=O)NC(=O)[C@@H]4CCCN4C(=O)CNC(=O)[C@H](CSSC[C@H](NC(=O)[C@H](CCCNC(=N)N)NC(=O)[C@H](CCC(N)=O)NC(=O)[C@H](CCCNC(=N)N)NC(=O)[C@H](CCCCN)NC(=O)[C@H](C(C)C)NC(=O)[C@H](CO)NC(=O)[C@H](CC(N)=O)NC1=O)C(=O)N[C@@H](CCCCN)C(=O)N[C@@H](CCC(N)=O)C(=O)N[C@@H](CC(=O)O)C(=O)N[C@@H](CO)C(=O)N[C@@H](CC(=O)O)C(=O)N3)NC(=O)[C@H](C(C)C)NC2=O  IC50 (HEK293, Wnt1-transfected; Wnt signalling): > 100 µM
CCC(CC)O[C@@H]1C=C(C(=O)O)C[C@H](N)[C@H]1NC(C)=O  protection (influenza A virus A/PR/8/34 (H1N1); concentration not given, co-treatment): 78.4 ± 0.3%
COc1c(CCC[P+](c2ccccc2)(c2ccccc2)c2ccccc2)cc2c(c1OC)OCO2.[I-]  TGI (NCI-H322M; SRB): -4.5 log M
CCCCNCCc1c[nH]c2cccc(O)c12.O=C(O)/C=C/C(=O)O  head twitch count (C57BL/6J mice; subcutaneous, 0.1 mg/kg): 4.3 ± 0.9
CCCCCCCCCCCCCCCC[N+](C)(C)CCCCCC[N+](C)(C)CCCCCCCCCCCCCCCC.[Br-].[Br-]  HA titre reduction (influenza A virus A/PR/8/34 (H1N1); concentration not given, pre-treatment): 3 ± 1 log units
CN1CCN(S(=O)(=O)c2cc([N+](=O)[O-])ccc2N(CCOS(C)(=O)=O)CCOS(C)(=O)=O)CC1  EFS ratio (T/C) (NSG mice, sample CI PDX; intraperitoneal, 25 mg/kg weekly x3; reference: treated over vehicle): > 21.6
[Ca+2]  inhibition (Halyomorpha halys; outward current, inhibitor, whole-cell patch clamp; 1 mM, Nan-Iav W701A): 12.8%
O=C(O)/C=C/C(=O)O.Oc1cccc2[nH]cc(CCNCc3ccccc3)c12  head twitch count (C57BL/6J mice; subcutaneous, 1 mg/kg): 12.7 ± 1.4
N=C(N)NCCC[C@@H]1NC(=O)[C@H](CCCCNC(=O)c2ccc(CNC34CNCCNCC(N)(CNCCNC3)CNCCNC4)cc2)NC(=O)[C@@H](Cc2ccc(O)cc2)NC(=O)[C@H](CC(=O)O)NC(=O)CNC1=O [copper-64 labelled]  tissue uptake (microPET; male athymic nude mouse, PC-3 tumour, liver; intravenous, 7.4 MBq, 2 h): 1.49 ± 0.2 %ID/g
COc1cc2c(Oc3ccc4[nH]c(C)cc4c3F)ccnc2cc1OCC1(N)CC1  grade 1 or 2 Dizzy (paediatric recurrent refractory sarcoma; 10 mg): 0%
COc1cc(Nc2ncc(F)c(Nc3ccc4c(n3)NC(=O)C(C)(C)O4)n2)cc(OC)c1OC  IC50 (NR3C2 (Homo sapiens, UniProt P08235)): > 10 µM
CC[C@H](C)[C@@H]1NC(=O)[C@@H]2CCCN2C(=O)[C@H](CC(C)C)NC(=O)[C@H](CC(C)C)NC(=O)CNC(=O)[C@@H](NC(=O)[C@@H](NC(=O)[C@H](CC(=O)O)NC(=O)CNC(=O)[C@@H](NC(=O)[C@H](C)NC(=O)CNC(=O)[C@H](CCCCN)NC(=O)[C@H](CC(C)C)NC(=O)[C@H](CC(C)C)NC(=O)[C@H](CCCCN)NC(=O)CNC(=O)[C@@H](NC(=O)[C@@H](N)CC(C)C)C(C)C)C(C)C)C(C)C)CSSC[C@@H](C(=O)O)NC1=O  log2 fold change (RNA-seq, item: Ubd mRNA; mouse traumatic brain injury, frontal cortex and hippocampus; dose not given; reference: TBI plus compound vs TBI): -3.73
CS(=O)(=O)CCCn1c(Cn2c(=O)n(CC(F)(F)F)c3ccncc32)cc2cc(Cl)ccc21  LS mean viral load change (respiratory syncytial virus; RT-qPCR; hospitalized infants 1-24 months, nasal swab; oral, 6, 4.5 or 3 mg/kg daily, day 3, mid dose by age cohort; reference: baseline): -1.24 log10 copies/mL
CC(C)N(CCC(C(N)=O)(c1ccccc1)c1ccccn1)C(C)C (stereo not drawn)  activity score (human iPSC-derived cardiomyocytes; MyBP-C/MYH ratio, plate-normalised SD score; concentration not given, primary screen; direction not given): 3.5
CCCNCCc1c[nH]c2cccc(O)c12.CCCNCCc1c[nH]c2cccc(O)c12.O=C(O)/C=C/C(=O)O  head twitch count (C57BL/6J mice; subcutaneous, 3 mg/kg): 32 ± 3.3
CCCCCCCCCCCCCCCC(=O)OCC(CSC[C@H](N)C(=O)N[C@@H](CO)C(=O)N[C@@H](CCCCN)C(=O)N[C@@H](CCCCN)C(=O)N[C@@H](CCCCN)C(=O)N[C@@H](CCCCN)C(=O)Nc1ccc(Cn2c(O)nc3c(N)nc(NCCCC)nc32)cc1)OC(=O)CCCCCCCCCCCCCCC (stereo partly drawn)  viability (HFF-1; 100 µg/mL, 48 h): 12.1%
CC[C@H](C)[C@H](NC(=O)[C@H](C)NC(=O)[C@H](CCCCN)NC(=O)[C@H](CC(C)C)NC(=O)[C@H](C)NC(=O)[C@@H](NC(=O)[C@H](Cc1c[nH]cn1)NC(=O)[C@H](CC(C)C)NC(=O)[C@@H](NC(=O)[C@@H](NC(=O)[C@H](CCCCN)NC(=O)[C@H](C)NC(=O)[C@H](C)NC(=O)[C@H](CO)NC(=O)[C@H](CCCCN)NC(=O)[C@H](Cc1ccccc1)NC(=O)[C@@H](NC(=O)[C@H](CCCCN)NC(=O)[C@H](CC(C)C)NC(=O)[C@H](Cc1ccccc1)NC(=O)[C@H](CO)NC(=O)[C@H](CCCCN)NC(=O)[C@H](Cc1c[nH]c2ccccc12)NC(=O)[C@H](CCCCN)NC(C)=O)[C@@H](C)O)[C@@H](C)O)C(C)C)[C@@H](C)O)C(=O)N[C@@H](CO)C(=O)N[C@@H](CO)C(N)=O  MBC50 (Enterococcus faecium; 40 strains): 16 µg/mL (≈ 5.45 µM)
O=C(c1ccc(Cl)cc1)N1CCN2C(=O)N(OC(=O)N3CCOc4ccccc43)C(=O)C2C1 (stereo not drawn)  mean protein ratio (Platelet-activating factor acetylhydrolase IB subunit alpha2 (Homo sapiens, UniProt P68402); MS-based ABPP; SW-620 conditioned medium; 10 µM, 1 h, 37 °C; reference: compound over DMSO, lower = more inhibition): 0.95
O=C(O)/C=C/C(=O)O.Oc1cccc2[nH]cc(CCNC3CCCCC3)c12  distance travelled (C57BL/6J mice; subcutaneous, 0.3 mg/kg, 30 min): 2460 ± 274 cm
CC[C@H](C)[C@H](NC(=O)[C@H](CC(C)C)NC(=O)[C@H](CCC(N)=O)NC(=O)[C@H](CCSC)NC(=O)[C@H](CC(N)=O)NC(=O)[C@H](Cc1ccccc1)NC(=O)[C@@H](N)CO)C(=O)N[C@@H](CO)C(=O)N[C@@H](CCC(N)=O)C(=O)N[C@H](C(=O)O)C(C)C  Kd (SCRIB PDZ3 domain; binding, fluorescence polarization; solution; Scribble PDZ3 domain): 39.3 µM
C[C@H]1O[C@@H](O[C@H]2CC[C@@]3(C)[C@@H](CC[C@]4(C)[C@@H]3C=C[C@]35OC[C@@]6(CCC(C)(C)C[C@H]63)[C@@H](O)C[C@]54C)[C@]2(C)CO)[C@H](O)[C@@H](O[C@@H]2O[C@H](CO)[C@@H](O)[C@H](O)[C@H]2O)[C@H]1O  ALT activity (Mus musculus, chronic-plus-binge ethanol-fed, AAV8-TBG-Null vector, plasma; oral, high dose, 5 h): 13.6 U/L and 19.4 U/L and 18.9 U/L and 27.1 U/L and 24.8 U/L and 24.6 U/L
CCCCCCCCCCCCCCCC[N+](C)(C)Cc1ccc(C[N+](C)(C)CCCCCCCCCCCCCCCC)cc1.[Br-].[Br-]  protection (influenza A virus A/PR/8/34 (H1N1); concentration not given, co-treatment): 65.4 ± 1.9%
COc1cc(CCC[P+](c2ccccc2)(c2ccccc2)c2ccccc2)c(OC)c2c1OCO2.[I-]  TGI (NCI-H23; SRB): -4.99 log M
O=c1ccn([C@@H]2O[C@](F)(CO)[C@@H](O)[C@H]2O)c(=O)[nH]1  normalized viral replication (human respiratory syncytial virus; recombinant reporter virus; concentration not given, scale 0 to 100, together with: adenosine 1.2 µM): 1.22 and 1.75 and 1.69
COc1c(C)c2c(c(O)c1C/C=C(\C)CCC(=O)O)C(=O)OC2  IC50 (ASPC1; cell proliferation; pancreas cancer): 2.24 µM
COc1ccc(-n2nc(C(C)=O)s/c2=N\N=C(/C)c2ccc(NC(C)=O)cc2)cc1  toxicity (WI-38; 0.156 µM): 77.1%
CC(C)C[C@H](NC(=O)[C@@H](N)C(C)C)C(=O)N[C@@H](Cc1ccc(O)cc1)C(=O)N1CCC[C@H]1C(=O)N[C@@H](CCCNC(=N)N)C(=O)N[C@@H](CCC(=O)O)C(=O)NCC(=O)N[C@H](C(=O)N[C@@H](CCC(=O)O)C(=O)N[C@H](C(=O)O)C(C)C)[C@@H](C)O  Kd (SCRIB PDZ3 domain; binding, fluorescence polarization; solution; Scribble PDZ3 domain): 11.7 µM
CN1CCN(C2(CNC3CCN(c4cccc(-c5cc6cc(F)ccc6[nH]5)c4)CC3)CCC2)CC1  CC50 (HCT-15): 4.39 µM
C=CCNCCc1c[nH]c2cccc(O)c12.C=CCNCCc1c[nH]c2cccc(O)c12.O=C(O)/C=C/C(=O)O  distance travelled (C57BL/6J mice; subcutaneous, 0.3 mg/kg, 30 min): 2450 ± 139 cm
CCc1cccc(CC)c1NC(=O)NC(=N)NCCSC  IC50 (4'-phosphopantetheinyl transferase PptT; inhibitor): > 100 µM

Some of these lines once more:
COc1ccc(-n2nc(C(C)=O)s/c2=N\N=C(/C)c2ccc(NC(C)=O)cc2)cc1  toxicity (WI-38; 0.156 µM): 77.1%
CC(C)C[C@H](NC(=O)[C@@H](N)C(C)C)C(=O)N[C@@H](Cc1ccc(O)cc1)C(=O)N1CCC[C@H]1C(=O)N[C@@H](CCCNC(=N)N)C(=O)N[C@@H](CCC(=O)O)C(=O)NCC(=O)N[C@H](C(=O)N[C@@H](CCC(=O)O)C(=O)N[C@H](C(=O)O)C(C)C)[C@@H](C)O  Kd (SCRIB PDZ3 domain; binding, fluorescence polarization; solution; Scribble PDZ3 domain): 11.7 µM
CN1CCN(C2(CNC3CCN(c4cccc(-c5cc6cc(F)ccc6[nH]5)c4)CC3)CCC2)CC1  CC50 (HCT-15): 4.39 µM
C=CCNCCc1c[nH]c2cccc(O)c12.C=CCNCCc1c[nH]c2cccc(O)c12.O=C(O)/C=C/C(=O)O  distance travelled (C57BL/6J mice; subcutaneous, 0.3 mg/kg, 30 min): 2450 ± 139 cm
CCc1cccc(CC)c1NC(=O)NC(=N)NCCSC  IC50 (4'-phosphopantetheinyl transferase PptT; inhibitor): > 100 µM
